Results gathered from unrelated publications.
Parts stem from different laboratories: compare values within a part only.
Sequence of UniProt Q96BR1 (whole entry, looked up): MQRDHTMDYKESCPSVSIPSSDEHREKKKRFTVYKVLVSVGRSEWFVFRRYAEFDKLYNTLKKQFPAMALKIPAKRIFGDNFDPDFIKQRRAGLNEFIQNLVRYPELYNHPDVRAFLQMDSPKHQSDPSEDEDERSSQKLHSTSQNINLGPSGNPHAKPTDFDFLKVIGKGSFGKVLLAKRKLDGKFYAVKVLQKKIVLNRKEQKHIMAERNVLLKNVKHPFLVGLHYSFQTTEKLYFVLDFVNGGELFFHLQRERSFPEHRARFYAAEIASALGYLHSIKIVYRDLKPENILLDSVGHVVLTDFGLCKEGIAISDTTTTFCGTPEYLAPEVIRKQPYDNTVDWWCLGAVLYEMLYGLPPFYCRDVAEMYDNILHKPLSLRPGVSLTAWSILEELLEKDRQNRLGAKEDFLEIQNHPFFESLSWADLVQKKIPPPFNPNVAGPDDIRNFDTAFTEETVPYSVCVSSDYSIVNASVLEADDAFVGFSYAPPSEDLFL

Block 1 — method: protein-binding microarray; form: double-stranded DNA, one strand shown; medium: in vitro; tested at: not given; direction: higher = stronger binding
Target: Transcriptional repressor CTCF (CTCF, Homo sapiens, UniProt P49711, residues 1-727, full length assumed)
Sequence of UniProt P49711 (whole entry, looked up): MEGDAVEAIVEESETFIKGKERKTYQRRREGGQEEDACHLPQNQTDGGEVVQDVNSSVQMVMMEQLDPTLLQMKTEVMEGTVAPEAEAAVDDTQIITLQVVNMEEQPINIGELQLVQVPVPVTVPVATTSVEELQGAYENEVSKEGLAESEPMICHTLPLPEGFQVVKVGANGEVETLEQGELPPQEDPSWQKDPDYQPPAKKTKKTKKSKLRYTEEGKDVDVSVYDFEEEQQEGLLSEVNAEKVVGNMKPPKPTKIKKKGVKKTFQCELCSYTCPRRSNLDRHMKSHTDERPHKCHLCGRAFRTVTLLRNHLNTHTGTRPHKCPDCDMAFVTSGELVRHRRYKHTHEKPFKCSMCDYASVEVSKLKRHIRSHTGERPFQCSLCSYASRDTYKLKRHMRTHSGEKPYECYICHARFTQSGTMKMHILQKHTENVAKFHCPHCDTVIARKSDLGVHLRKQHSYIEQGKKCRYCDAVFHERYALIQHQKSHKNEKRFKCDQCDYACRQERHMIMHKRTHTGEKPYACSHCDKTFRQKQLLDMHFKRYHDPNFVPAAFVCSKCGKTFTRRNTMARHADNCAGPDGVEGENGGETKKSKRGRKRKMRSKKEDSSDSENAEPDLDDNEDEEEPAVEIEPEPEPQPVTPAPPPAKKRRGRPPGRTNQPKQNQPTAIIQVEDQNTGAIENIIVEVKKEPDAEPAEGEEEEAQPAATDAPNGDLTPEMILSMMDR
Setting: k-mer, scored over probes, only values ≥0.25
With `CGTAATAA` the E-score was 0.266.
`TATATTAA` has an E-score of 0.326.
The E-score of `AGAGAAAT` is reported as 0.251.
For `ATTACGTA`, the E-score was 0.27.
`CCGCTAGG` has an E-score of 0.463.
The E-score of `TATATACA` is reported as 0.28.
`AAAAATGA` has an E-score of 0.313.
With `ATTATCAG` the E-score was 0.254.

Block 2 — method: protein binding microarray; form: double-stranded DNA, one strand shown; medium: in vitro; tested at: not given; baseline: not given; direction: higher = stronger binding
Target: Histone acetyltransferase KAT6A, winged helix 2, GST fusion (KAT6A, Homo sapiens, UniProt Q92794, residues 85-181)
Setting: 8-mer, flanks averaged, mean of 2 arrays, mostly near background
Target sequence (chain): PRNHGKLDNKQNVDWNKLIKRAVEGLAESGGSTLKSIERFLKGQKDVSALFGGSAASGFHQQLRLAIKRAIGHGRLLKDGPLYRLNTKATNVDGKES
With `AGCTTACT` the E-score was -0.0241.
The E-score of `TCCAACGA` is reported as 0.0455.
`AAGCCGTC` has an E-score of 0.156.
`AAACACGG` has an E-score of 0.0386.
For `CTTTTCGC`, the E-score was 0.144.
With `CCGTTCGC` the E-score was 0.00338.
With `ACGCATCG` the E-score was -0.0204.
With `ATATCAAT` the E-score was 0.141.

Block 3 — method: RNAcompete; form: RNA; medium: in vitro; tested at: 20 nM; setting: 7-mer, probes averaged, single round; baseline: mean of 7-mers; direction: higher = stronger binding
Target: PABPC1L2, full length, GST fusion (mouse, UniProt A0ABA7IW68)
Residues (chain): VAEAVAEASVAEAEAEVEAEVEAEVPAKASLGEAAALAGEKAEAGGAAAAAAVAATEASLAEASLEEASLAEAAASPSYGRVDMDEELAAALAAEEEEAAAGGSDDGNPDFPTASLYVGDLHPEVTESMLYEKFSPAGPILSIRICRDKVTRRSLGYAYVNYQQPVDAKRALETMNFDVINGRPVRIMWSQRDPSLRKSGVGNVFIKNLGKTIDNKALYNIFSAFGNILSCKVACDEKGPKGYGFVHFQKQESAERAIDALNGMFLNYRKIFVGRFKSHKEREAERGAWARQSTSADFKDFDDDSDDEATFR
For `CUUAAGU`, the 7-mer Z-score was -0.32.
`UAACUUU` gave a 7-mer Z-score of -0.161.
With `CUAUCAA` the 7-mer Z-score was -0.0319.
`UCCUGGA` has a 7-mer Z-score of -0.135.
The 7-mer Z-score of `UAUUCCA` is reported as -0.18.
`GCAACGA` gave a 7-mer Z-score of 0.153.
The 7-mer Z-score of `UGCAGAA` is reported as 0.323.
`UCCCCAC` gave a 7-mer Z-score of -0.434.

Mixed results
`O=C(Nc1cccc(Nc2cc(Nc3cccc(C(F)(F)F)c3)ncn2)c1)C1CC1` has a remaining activity of 106% (Serine/threonine-protein kinase Sgk3 (SGK3, Homo sapiens, UniProt Q96BR1); enzyme activity, inhibitor; 0.5 µM; baseline: control).
